# Measured values collected from several papers.
# Parts stem from different laboratories: compare values within a part only. Changes are numbered by the printed parent chain.

# Study 1
# Target: PABPC1L2, full length, GST fusion (mouse, UniProt A0ABA7IW68)
# Method: RNAcompete
# Form: RNA
# Matrix: in vitro
# Concentration: 20 nM
# Notes: 7-mer, probes averaged, single round
# Reference: mean of 7-mers
# Direction: higher = stronger binding
# Target sequence (chain): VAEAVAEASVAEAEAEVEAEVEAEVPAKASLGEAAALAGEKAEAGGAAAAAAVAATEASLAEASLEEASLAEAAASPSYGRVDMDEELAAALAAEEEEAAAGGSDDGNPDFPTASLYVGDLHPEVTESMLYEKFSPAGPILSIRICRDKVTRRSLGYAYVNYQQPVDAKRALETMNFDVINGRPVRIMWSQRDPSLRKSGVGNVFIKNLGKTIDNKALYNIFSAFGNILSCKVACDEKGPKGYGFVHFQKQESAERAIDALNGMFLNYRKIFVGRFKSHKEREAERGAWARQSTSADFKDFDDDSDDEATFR
Oligonucleotide,7-mer Z-score
UCUAAAU,0.273
AUAUCCC,-0.255
UGUAAUA,-0.112
CGACGCG,-0.173
CGGUUGA,-0.202
CUUGAGU,-0.233
UGUGAGU,-0.293
UCACUCU,-0.438
CGCGAUA,-0.0446
UUAAGAG,-0.0283
UUGCGCG,-0.255
UCGAGCA,-0.133
AACGACA,0.338
CGUCGAU,-0.324
GGGUUGG,0.0569
AGUCCAG,-0.182
GAGCAUC,-0.15
CGUAGAA,0.476
UAAACCG,0.113
UGCUGCG,-0.132
UAUACUG,-0.329

# Study 2
# Target: CCND3, cyclin fold, Cln2 fusion (human)
# Method: yeast growth competition, sequencing
# Matrix: yeast
# Notes: weak parent motif
# Reference: not given
# Direction: higher = stronger binding
# Parent: CDKN1A docking peptide (human); SKACRRLFGPVDS; partner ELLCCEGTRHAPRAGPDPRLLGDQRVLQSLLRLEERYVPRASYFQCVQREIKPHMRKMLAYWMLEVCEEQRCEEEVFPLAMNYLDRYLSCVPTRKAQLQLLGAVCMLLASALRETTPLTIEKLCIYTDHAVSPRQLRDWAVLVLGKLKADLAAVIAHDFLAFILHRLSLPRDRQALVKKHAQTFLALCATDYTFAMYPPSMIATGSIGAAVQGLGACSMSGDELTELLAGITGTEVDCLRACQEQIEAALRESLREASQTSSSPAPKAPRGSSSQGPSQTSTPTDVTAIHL
Substitution,normalised enrichment score
P10G,0.404
R5G,0.101
V11N,0.161
K2Y,0.628
G9R,0.211
K2N,0.691
R6Q,0.141
D12N,0.237
R6F,0.207
D12Q,-0.0558
P10M,0.18
L7G,0.112
G9P,0.103
G9N,0.204
P10W,0.125
V11M,0.506
P10F,-0.158
A3E,0.39
L7P,0.0486

# Study 3
# Target: CREBRF, bZIP domain (human)
# Method: DHFR protein complementation
# Matrix: yeast
# Notes: single substitutions, most at no-binding floor
# Reference: wild-type JUN-FOS pair
# Direction: higher = stronger binding
# Parent: JUN, bZIP domain (human); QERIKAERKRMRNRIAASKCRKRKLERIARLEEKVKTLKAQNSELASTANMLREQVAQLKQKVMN; partner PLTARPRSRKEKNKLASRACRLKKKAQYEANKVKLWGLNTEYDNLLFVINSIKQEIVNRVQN
Substitution,binding fitness
T37W,-1.33 natural log
K36S,-1.54 natural log
L38G,-1.51 natural log
Q41M,-1.52 natural log
E32M,-1.41 natural log
E44K,-1.51 natural log
A46C,-1.09 natural log
R53H,-1.59 natural log
E32S,-1.45 natural log
V35H,-1.38 natural log
A29N,-1.55 natural log
V56Q,-1.51 natural log
V56N,-1.65 natural log
V56L,-1.54 natural log
A40Y,-1.62 natural log
K34C,-1.32 natural log
S43C,-1.16 natural log
T48M,-1.1 natural log
M51S,-1.44 natural log
K34A,-1.5 natural log
L45I,-1.62 natural log
E32H,-1.58 natural log
A57H,-1.58 natural log

# Study 4
# Target: ABI1, truncated, D143A, DHFR fusion (Arabidopsis thaliana)
# Method: DHFR PCA, deep sequencing
# Matrix: yeast
# Notes: methotrexate growth selection, single substitutions
# With: (+)-ABA 4.8 µM
# Reference: wild-type fitted maximum
# Direction: higher = stronger binding
# Parent: PYL1, truncated, DHFR fusion (Arabidopsis thaliana); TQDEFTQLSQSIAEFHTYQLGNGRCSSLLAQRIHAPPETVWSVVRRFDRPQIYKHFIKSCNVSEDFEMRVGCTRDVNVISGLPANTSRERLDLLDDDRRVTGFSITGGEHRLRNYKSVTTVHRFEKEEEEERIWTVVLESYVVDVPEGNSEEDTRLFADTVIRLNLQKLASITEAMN; partner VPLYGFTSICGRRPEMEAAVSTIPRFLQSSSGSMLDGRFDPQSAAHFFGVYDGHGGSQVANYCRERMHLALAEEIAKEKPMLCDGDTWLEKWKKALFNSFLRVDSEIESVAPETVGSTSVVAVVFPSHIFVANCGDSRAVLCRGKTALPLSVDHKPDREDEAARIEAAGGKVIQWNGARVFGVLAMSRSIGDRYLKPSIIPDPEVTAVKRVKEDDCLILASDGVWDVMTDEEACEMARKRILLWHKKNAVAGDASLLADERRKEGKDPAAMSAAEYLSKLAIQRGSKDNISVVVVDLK
Substitution,relative binding score [%]
F124R,13
Q167N,71.3
T73R,42.7
P37Q,28.4
D159C,-3.57
H55L,77.6
N85V,75.8
I33Q,6.02
P50K,4.11
L166I,9.37
I52K,52.3
G148Y,-6.14
V136N,-11
C72V,72.4

# Study 5
# Target: Ras GTPase-activating protein-binding protein 1, full length (G3BP1, Homo sapiens, UniProt Q13283)
# Chain of UniProt Q13283 (whole entry, looked up): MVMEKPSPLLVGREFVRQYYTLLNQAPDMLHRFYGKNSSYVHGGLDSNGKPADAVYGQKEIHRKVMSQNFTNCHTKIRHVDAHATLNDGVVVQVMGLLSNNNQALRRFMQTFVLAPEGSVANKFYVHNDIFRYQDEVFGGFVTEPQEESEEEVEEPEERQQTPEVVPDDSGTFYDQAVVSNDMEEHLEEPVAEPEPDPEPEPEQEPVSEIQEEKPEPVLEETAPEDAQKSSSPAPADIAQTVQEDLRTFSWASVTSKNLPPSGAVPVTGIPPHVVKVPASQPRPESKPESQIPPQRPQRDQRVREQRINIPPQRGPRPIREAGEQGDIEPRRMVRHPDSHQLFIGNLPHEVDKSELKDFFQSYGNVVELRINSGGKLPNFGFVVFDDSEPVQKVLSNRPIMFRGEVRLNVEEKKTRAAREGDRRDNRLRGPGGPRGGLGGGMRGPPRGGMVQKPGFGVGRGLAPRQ
# Method: RNA Bind-n-Seq
# Form: RNA
# Matrix: in vitro
# Concentration: 200 nM
# Notes: whole 134-nt RNA, ends assumed
# With: 150 mM KCl
# Reference: input library
# Direction: higher = stronger binding
# All sequences stand within: GGGAGUUCUACAGUCCGACGAUC … UGGAAUUCUCGGGUGUCAAGG
Oligonucleotide,log2 enrichment
UCCUCAAGUCCUGUGCUACACAUCGUAUGUACCGAAUCGGAGGGAGGAGGGAAAGUAUUAUGUUACGCCGUUCGGAUCUGCACUUCCAGC,-0.252
GCAGGAAGUAAAAACAAAUGGAAACGCUUCGGAUAGUGGCAGGGGUGGGGGUUGCUAAGGAAAGGGUGGGAUGGGAGUGGGUAAAGAGUU,0.982
UCCUGUGCUACACAUCGUAUGUACCGAAUCGGAAAAAAGGAAAAAAGGGAAAAAAGGGGAAAGUAUUAUGUUACGCCGUUCGGAUCUGCA,-0.812
CCUGUGCUACACAUCGUAUGUACCGAAUCGGGGAAAAAAGGGAAAAAAGGGAAAAAAGGGAAAGUAUUAUGUUACGCCGUUCGGAUCUGC,-0.563
UCCUGUGCUACACAUCGUAUGUACCGAAUCGGAAAAAAAGGAAAAAAAGGAAAAAAAGGGAAAGUAUUAUGUUACGCCGUUCGGAUCUGC,-0.255
AAGUCCUGUGCUACACAUCGUAUGUACCGAAUCGGGGUUUUUGGGGUGGGGAGGGGAAAGUAUUAUGUUACGCCGUUCGGAUCUGCACUU,0.98
UCCUGUGCUACACAUCGUAUGUACCGAAUCGGGGCCCCCCGGCCCCCCGGGGCCCCCCGGAAAGUAUUAUGUUACGCCGUUCGGAUCUGC,0.112
CUGUGCUACACAUCGUAUGUACCGAAUCGGGGCCCCCCCGGCCCCCCCGGCCCCCCCGGGGAAAGUAUUAUGUUACGCCGUUCGGAUCUG,-0.53
UAACUUUAGAGGAGGAUCUGAUGGAUAUGGCAGUGGACGUGGAUUUGGGGAUGGCUAUAAUGGGUAUGGAGGAGGACCUGGAGGGGGCAA,0.256
AAGUCCUGUGCUACACAUCGUAUGUACCGAAUCGGGCCCCGGCCCCGGCCCCGGGGAAAGUAUUAUGUUACGCCGUUCGGAUCUGCACUU,-0.914

# Study 6
# Target: Sal-like protein 4, full length isoform B (SALL4, Homo sapiens, UniProt Q9UJQ4-2, residues 1-616)
# Method: universal PBM
# Form: double-stranded DNA, one strand shown
# Matrix: in vitro
# Concentration: not given
# Notes: 8-mer, flanks averaged, mean of replicates
# Direction: higher = stronger binding
Oligonucleotide,E-score
CATCATCG,0.115
CGGTTGAA,-0.0539
GCCCCCGA,-0.184
ACCAACTG,-0.134
GATGGACC,-0.181
CCTCACCC,-0.194
CGAGGGTC,-0.369
CTGGTGTC,-0.133
GGGGTCAC,-0.345
ACAAAATC,0.119
CGCGCGAA,-0.301
ACCCACTA,-0.0214
CAACCCCA,-0.147
CTAGTAAA,0.237
ACGTACTC,0.0228
CCTGTGGC,-0.256
CATGCGAC,0.0511
ATGAAATG,0.174
ACAAGTCC,-0.0226
AGTGAGGA,-0.0448
GCGTTAGC,-0.0358
CGACCGTA,-0.246
CACCAGCG,-0.268
AACGGAAG,0.01
GGACGCTA,-0.153
